Published values gathered from unrelated publications.
Lines come from different studies, so protocols differ.
PTK2B: Protein-tyrosine kinase 2-beta (PTK2B, Homo sapiens, UniProt Q14289)
Sequence of UniProt Q14289 (whole entry, looked up): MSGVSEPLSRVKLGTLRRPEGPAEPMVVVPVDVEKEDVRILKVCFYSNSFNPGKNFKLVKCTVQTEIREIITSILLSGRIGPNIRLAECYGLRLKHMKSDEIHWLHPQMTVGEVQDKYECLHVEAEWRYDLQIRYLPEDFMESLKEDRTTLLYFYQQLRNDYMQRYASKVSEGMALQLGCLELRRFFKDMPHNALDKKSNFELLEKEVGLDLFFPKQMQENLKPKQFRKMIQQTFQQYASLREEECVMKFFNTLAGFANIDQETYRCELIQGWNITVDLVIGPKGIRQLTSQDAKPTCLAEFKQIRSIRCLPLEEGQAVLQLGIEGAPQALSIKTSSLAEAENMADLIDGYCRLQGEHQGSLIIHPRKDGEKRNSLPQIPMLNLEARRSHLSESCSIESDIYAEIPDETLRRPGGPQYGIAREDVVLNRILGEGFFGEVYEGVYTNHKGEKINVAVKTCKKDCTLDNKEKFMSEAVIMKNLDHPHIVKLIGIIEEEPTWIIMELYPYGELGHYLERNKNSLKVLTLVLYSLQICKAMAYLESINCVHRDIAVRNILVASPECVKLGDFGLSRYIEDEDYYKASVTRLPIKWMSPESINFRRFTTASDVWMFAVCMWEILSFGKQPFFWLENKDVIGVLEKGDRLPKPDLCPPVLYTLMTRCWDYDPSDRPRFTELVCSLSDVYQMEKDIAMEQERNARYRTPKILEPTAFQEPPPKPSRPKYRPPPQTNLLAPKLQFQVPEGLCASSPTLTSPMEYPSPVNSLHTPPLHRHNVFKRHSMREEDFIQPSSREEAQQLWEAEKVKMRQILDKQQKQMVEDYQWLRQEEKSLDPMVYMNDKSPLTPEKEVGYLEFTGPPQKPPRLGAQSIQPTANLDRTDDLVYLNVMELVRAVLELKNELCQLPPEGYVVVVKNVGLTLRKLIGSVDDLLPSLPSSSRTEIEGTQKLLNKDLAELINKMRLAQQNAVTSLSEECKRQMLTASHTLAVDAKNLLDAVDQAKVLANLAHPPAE
Sequence of UniProt Q8N5Z0 (whole entry, looked up): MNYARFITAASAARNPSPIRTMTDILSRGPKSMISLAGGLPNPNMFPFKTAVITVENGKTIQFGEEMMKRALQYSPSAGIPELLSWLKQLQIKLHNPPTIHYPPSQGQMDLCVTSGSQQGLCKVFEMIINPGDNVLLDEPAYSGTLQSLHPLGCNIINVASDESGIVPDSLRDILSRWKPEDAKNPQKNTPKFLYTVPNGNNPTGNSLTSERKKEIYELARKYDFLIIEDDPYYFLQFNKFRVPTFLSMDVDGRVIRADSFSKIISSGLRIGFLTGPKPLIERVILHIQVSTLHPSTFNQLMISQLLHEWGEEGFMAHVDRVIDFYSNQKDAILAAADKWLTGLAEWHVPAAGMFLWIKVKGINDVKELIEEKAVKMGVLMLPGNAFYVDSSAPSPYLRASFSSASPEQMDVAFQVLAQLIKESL
Sequence of UniProt P08172 (whole entry, looked up): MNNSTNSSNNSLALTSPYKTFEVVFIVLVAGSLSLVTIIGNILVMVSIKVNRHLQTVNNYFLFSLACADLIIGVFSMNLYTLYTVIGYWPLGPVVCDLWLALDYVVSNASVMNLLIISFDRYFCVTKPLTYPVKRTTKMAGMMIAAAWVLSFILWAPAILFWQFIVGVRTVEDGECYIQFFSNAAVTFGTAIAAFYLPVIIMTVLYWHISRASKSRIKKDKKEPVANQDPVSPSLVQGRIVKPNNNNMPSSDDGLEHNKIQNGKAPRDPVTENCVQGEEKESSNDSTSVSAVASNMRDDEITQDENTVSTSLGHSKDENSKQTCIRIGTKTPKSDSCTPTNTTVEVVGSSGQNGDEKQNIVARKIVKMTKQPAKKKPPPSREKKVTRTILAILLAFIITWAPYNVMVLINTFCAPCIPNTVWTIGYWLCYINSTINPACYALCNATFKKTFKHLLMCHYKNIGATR
Sequence of UniProt P00540 (whole entry, looked up): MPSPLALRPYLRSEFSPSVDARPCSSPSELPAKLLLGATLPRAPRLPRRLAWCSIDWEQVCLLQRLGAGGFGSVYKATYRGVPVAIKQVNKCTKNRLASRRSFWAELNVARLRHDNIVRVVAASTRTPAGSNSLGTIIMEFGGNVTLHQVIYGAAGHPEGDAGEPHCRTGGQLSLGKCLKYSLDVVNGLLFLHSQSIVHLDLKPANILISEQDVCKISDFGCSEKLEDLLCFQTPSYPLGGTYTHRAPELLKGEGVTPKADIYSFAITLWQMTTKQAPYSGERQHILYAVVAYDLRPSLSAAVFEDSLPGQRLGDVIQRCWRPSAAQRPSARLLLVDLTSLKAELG
Sequence of UniProt P25025 (whole entry, looked up): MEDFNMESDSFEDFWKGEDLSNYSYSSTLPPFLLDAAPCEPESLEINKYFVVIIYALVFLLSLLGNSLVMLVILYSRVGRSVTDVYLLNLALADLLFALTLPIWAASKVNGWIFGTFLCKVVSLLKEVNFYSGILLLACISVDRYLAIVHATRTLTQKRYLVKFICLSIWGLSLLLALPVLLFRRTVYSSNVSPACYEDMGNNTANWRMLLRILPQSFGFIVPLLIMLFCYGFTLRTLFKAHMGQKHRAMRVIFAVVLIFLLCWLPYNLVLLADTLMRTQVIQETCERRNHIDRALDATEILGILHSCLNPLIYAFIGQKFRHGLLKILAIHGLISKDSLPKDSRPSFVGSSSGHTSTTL
Sequence of UniProt P35367 (whole entry, looked up): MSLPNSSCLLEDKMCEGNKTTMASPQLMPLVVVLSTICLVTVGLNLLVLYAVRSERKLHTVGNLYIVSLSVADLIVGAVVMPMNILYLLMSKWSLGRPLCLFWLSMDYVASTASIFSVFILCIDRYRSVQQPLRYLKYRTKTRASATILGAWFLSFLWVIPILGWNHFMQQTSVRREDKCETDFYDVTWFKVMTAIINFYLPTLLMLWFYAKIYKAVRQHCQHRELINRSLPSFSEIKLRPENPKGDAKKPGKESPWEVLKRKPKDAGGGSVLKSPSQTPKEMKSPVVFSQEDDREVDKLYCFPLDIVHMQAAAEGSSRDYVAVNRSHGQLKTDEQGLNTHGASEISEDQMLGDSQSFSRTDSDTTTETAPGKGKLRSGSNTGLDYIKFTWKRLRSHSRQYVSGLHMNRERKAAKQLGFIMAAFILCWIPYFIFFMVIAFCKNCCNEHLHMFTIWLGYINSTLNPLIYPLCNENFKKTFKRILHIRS
Sequence of UniProt P13504 (whole entry, looked up): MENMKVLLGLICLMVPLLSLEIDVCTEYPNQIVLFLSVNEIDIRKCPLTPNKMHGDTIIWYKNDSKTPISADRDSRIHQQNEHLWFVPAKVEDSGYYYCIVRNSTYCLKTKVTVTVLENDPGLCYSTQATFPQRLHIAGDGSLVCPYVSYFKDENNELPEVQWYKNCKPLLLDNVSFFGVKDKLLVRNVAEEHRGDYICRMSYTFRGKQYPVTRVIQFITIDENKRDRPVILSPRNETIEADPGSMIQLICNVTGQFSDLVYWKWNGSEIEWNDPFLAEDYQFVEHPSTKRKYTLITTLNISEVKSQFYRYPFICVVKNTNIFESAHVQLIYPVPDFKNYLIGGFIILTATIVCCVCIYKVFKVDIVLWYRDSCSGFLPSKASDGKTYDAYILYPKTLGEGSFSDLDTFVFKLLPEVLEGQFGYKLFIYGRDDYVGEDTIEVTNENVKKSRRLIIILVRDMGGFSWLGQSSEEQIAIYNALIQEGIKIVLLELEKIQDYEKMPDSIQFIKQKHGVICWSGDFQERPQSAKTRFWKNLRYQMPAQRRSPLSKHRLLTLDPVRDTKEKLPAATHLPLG
Sequence of UniProt P43681 (whole entry, looked up): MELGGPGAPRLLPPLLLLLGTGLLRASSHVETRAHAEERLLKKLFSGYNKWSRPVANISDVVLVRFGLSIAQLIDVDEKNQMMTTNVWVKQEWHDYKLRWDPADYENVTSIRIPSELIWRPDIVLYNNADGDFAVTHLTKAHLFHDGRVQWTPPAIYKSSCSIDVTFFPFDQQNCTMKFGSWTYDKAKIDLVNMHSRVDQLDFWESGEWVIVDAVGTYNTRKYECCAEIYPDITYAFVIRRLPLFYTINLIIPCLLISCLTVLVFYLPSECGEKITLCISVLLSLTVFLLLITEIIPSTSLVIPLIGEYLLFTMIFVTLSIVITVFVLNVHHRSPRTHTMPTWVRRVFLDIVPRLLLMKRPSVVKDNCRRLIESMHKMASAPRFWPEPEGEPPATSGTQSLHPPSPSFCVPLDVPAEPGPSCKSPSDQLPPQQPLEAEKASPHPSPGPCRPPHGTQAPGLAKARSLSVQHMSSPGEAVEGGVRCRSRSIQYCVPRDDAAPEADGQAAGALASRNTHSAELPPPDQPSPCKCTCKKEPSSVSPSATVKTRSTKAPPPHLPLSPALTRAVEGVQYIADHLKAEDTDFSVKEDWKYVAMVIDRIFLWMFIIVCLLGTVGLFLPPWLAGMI
Sequence of UniProt Q6P2M8 (whole entry, looked up): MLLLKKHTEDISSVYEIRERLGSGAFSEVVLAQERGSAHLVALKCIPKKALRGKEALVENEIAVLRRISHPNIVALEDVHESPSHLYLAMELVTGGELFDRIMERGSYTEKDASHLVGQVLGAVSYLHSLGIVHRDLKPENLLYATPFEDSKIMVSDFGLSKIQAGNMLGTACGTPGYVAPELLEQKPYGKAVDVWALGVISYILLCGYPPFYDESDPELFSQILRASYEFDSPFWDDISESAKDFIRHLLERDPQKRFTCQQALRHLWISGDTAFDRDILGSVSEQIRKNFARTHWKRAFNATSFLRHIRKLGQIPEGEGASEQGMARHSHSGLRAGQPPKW
Sequence of UniProt Q9Y271 (whole entry, looked up): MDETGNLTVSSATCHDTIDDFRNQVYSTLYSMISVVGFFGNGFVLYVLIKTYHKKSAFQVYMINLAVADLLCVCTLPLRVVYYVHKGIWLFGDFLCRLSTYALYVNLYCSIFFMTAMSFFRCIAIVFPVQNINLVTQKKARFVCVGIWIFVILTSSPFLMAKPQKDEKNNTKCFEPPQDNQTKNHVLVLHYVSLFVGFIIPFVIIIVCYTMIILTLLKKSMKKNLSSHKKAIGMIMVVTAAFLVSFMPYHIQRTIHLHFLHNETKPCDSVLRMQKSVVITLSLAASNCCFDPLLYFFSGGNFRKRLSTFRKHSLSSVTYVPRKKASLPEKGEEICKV

O=C(CN1CN(c2ccccc2)C2(CCN(C(=O)c3cnc4[nH]ncc4c3)CC2)C1=O)NCC(F)(F)F — inhibition (PNCK (Homo sapiens, UniProt Q6P2M8); inhibitor; concentration not given): < 50%
O=C(O)CCn1c(=O)oc2cc(Cl)c(Cl)cc21 — inhibition (AADAT (Homo sapiens, UniProt Q8N5Z0); enzyme activity, inhibitor; 100 µM): 7%
CC(C)[C@H]1NC(=O)C[C@H]2/C=C/CCSSC[C@@H](NC1=O)C(=O)N[C@H](Cc1cccc3ccccc13)C(=O)NCC(=O)O2 — inhibition (Proto-oncogene serine/threonine-protein kinase mos (MOS, Homo sapiens, UniProt P00540); 10 µM): 0.142%
O=C(O)c1ccccc1/C=N/Nc1nc(-c2ccccc2Cl)cs1 — inhibition (PTK2B; enzyme activity, inhibitor; 1 µM): -6.36%
COc1ccccc1N1CCN(CCCCN2CCCc3ccccc3C2=O)CC1 — inhibition (HTR6 (Homo sapiens, UniProt P50406); radioligand binding; concentration not given, with: [3H]LSD): 22.8%
C/C(=N\OCCCN1CCCCC1)c1ccc(C(F)(F)F)cc1 — inhibition (Androgen receptor (AR, Homo sapiens, UniProt P10275); reporter gene, antagonist, luciferase reporter; 10 µM): -4.15%
CN(/N=C/c1ccccc1C(=O)O)c1nc(-c2ccccc2Cl)cs1 — inhibition (DDR1 (Homo sapiens, UniProt Q08345); enzyme activity, inhibitor; 1 µM): -18.9%
COc1ccc(F)cc1S(=O)(=O)Nc1cnc2c(c1)C(=O)NCCO2 — inhibition (androgen receptor; radioligand binding; 10 µM, with: testosterone): -12%
C=CC(=O)Nc1cc(-c2nn(C3CCC(N4CCN(C(C)=O)CC4)CC3)c3ncnc(N)c23)ccc1Oc1ccccc1 (centres unmarked) — inhibition (TAOK2 (Homo sapiens, UniProt Q9UL54); inhibitor, KiNativ profiling; biochemical; 2 µM): 1.8%
Cc1ccc2c(n1)c(-c1cccc(S(C)(=O)=O)c1)c(C)n2C/C(F)=C/CN — inhibition (CYSLTR1 (Homo sapiens, UniProt Q9Y271); ligand displacement, radioligand; 10 µM): 8%
CS(C)(=O)=Nc1ccc(-c2ccc(-c3nc4cc(O[C@@H]5CO[C@H]6[C@@H]5OC[C@H]6O)[nH]c4cc3F)cc2)cc1 — inhibition (CXCR2 (Homo sapiens, UniProt P25025); ligand displacement, radioligand; 10 µM): -6%
N[C@H](C(=O)N1CCCC1)C1CCN(c2nccc3c(-c4ncc(Cl)cc4Cl)cccc23)CC1 — inhibition (LCK (Homo sapiens, UniProt P06239); kinase activity, inhibitor; 10 µM, with: ATP 1 mM): 14%
O=C(NCC1CCc2nccn2C1)c1cnc2ccccn12 (centres unmarked) — inhibition (Cholinesterase (BCHE, Homo sapiens, UniProt P06276); enzyme activity, inhibitor, Ellman; 10 µM): 25.4%
CCc1nnc(-c2c(OC)cc(-c3cnc4cc(-c5cnn(C)c5)ccn34)cc2OC)o1 — inhibition (HRH1 (Homo sapiens, UniProt P35367); antagonist radioligand, radioligand binding; 10 µM, SafetyScreen44 H1): -6%
CN[C@@H]1[C@H](O)[C@H](NC)[C@H]2O[C@]3(O)[C@H](O[C@@H]2[C@H]1O)O[C@H](C)C[C@H]3NC(=O)Cc1ccc(Cl)cn1 — inhibition (Interleukin-1 receptor type 1 (Il1r1, Mus musculus, UniProt P13504); 10 µM): 16%
CCOC(=O)[C@](CC)(CCCSCCOCCOCCNC(=O)c1ccc(-c2c3ccc(=N)c(S(=O)(=O)O)c-3oc3c(S(=O)(=O)O)c(N)ccc23)c(C(=O)O)c1)NC(=O)c1ccc(C2CC2)c(Cc2ccc(F)cc2)n1 — inhibition (Neuronal acetylcholine receptor; alpha4/beta2 (Homo sapiens, UniProt P17787+P43681); ligand displacement, radioligand; 10 µM): -7%
CN(C)[C@H]1C[C@@]23CC[C@@]4(O2)C(=CC[C@]2(C)[C@@H](c5ccc6ccncc6c5)CC[C@H]24)C=C3[C@@H](O)[C@@H]1O — inhibition (PTK2B; ATP probe labelling, inhibitor, KiNativ profiling; 1 µM): 8.8%
CN[C@@H]1[C@H](O)[C@H](NC)[C@H]2O[C@]3(O)[C@H](O[C@@H]2[C@H]1O)O[C@H](C)C[C@H]3NC(=O)Cc1cc(Cl)ccn1 — inhibition (CHRM2 (Homo sapiens, UniProt P08172); ligand displacement, radioligand; 10 µM): 5%
C[C@H](NCc1ccc(-c2ccc(C(F)(F)F)cc2)cc1)C(N)=O — inhibition (Aurora kinase A (AURKA, Homo sapiens, UniProt O14965); cell-free assay, competition with immobilised ligand; 1 µM): 20%
N#Cc1ccc(N2N=C3c4ccc(C(=O)O)cc4CCC3C2C2CCCC2)cc1Cl (centres unmarked) — inhibition (KMT5A (Homo sapiens, UniProt Q9NQR1); enzyme activity, inhibitor; 10 µM): 9%

Excerpt of the above:
O=C(O)c1ccccc1/C=N/Nc1nc(-c2ccccc2Cl)cs1 — inhibition (PTK2B; enzyme activity, inhibitor; 1 µM): -6.36%
COc1ccccc1N1CCN(CCCCN2CCCc3ccccc3C2=O)CC1 — inhibition (HTR6 (Homo sapiens, UniProt P50406); radioligand binding; concentration not given, with: [3H]LSD): 22.8%
